Measurements gathered from unrelated publications.
± marks the error that the study gave.
UniProt P28566, sequence (whole entry, looked up): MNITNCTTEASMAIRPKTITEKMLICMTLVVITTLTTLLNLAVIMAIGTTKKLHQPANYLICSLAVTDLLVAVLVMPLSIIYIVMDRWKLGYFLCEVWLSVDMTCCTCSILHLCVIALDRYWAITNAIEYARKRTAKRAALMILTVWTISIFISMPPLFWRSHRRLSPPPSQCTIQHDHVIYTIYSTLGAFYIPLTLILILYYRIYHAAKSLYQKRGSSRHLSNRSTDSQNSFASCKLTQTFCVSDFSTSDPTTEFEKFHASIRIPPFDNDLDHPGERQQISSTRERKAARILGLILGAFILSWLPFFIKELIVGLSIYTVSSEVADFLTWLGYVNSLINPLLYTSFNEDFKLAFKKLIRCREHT
UniProt Q16566, sequence (whole entry, looked up): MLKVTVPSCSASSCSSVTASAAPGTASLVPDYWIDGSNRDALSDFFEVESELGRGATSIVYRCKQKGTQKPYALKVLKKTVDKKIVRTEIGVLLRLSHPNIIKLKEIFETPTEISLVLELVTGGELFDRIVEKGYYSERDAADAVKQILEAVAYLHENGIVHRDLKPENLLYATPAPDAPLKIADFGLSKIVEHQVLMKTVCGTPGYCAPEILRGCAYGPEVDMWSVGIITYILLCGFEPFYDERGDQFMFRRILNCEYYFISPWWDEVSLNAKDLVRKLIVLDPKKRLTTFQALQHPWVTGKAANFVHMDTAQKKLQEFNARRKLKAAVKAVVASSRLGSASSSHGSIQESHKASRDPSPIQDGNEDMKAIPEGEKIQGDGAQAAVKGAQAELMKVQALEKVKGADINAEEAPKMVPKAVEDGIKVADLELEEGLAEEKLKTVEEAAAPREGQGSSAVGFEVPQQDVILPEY
UniProt P08659, sequence (whole entry, looked up): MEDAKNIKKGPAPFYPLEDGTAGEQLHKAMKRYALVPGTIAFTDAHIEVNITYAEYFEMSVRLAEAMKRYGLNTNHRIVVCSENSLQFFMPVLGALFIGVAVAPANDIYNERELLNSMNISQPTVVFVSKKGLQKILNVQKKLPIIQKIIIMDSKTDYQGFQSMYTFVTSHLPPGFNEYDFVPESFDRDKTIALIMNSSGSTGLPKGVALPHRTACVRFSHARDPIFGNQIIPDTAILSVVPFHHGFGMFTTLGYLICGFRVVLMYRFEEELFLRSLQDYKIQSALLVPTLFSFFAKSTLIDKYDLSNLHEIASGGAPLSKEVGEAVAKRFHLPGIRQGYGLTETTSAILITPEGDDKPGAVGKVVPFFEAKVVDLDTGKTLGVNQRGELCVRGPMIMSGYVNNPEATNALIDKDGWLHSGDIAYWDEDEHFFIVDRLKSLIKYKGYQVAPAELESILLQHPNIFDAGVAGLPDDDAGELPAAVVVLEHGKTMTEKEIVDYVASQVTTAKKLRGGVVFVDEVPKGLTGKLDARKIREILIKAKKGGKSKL
UniProt P25105, sequence (whole entry, looked up): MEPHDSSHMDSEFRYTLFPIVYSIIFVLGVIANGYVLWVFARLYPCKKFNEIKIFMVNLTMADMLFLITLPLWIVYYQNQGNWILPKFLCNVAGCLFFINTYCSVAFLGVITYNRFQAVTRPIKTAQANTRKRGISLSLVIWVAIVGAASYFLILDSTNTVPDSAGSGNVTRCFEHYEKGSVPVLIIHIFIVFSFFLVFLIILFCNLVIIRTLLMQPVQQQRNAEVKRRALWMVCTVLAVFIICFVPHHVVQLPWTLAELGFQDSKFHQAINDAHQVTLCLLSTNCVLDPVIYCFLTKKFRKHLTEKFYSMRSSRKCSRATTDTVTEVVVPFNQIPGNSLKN
UniProt P16257, sequence (whole entry, looked up): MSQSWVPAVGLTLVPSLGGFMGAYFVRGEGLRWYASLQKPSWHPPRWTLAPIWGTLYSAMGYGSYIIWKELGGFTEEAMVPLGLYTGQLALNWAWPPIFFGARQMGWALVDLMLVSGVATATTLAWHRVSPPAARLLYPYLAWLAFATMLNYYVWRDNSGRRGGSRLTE
UniProt O95747, sequence (whole entry, looked up): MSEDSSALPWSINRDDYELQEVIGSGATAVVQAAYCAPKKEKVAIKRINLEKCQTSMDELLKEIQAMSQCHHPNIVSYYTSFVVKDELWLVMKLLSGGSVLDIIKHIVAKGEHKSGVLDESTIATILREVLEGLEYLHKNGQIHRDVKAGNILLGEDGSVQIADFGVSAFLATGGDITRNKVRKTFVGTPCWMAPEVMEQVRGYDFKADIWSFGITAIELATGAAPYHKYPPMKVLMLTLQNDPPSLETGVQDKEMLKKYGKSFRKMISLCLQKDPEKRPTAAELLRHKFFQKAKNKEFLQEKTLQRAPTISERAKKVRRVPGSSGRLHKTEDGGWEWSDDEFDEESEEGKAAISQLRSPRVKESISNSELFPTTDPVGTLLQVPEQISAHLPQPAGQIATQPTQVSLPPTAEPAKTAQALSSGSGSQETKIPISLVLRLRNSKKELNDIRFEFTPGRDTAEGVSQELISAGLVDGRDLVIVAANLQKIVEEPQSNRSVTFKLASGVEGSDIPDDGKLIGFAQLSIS
UniProt P06396, sequence (whole entry, looked up): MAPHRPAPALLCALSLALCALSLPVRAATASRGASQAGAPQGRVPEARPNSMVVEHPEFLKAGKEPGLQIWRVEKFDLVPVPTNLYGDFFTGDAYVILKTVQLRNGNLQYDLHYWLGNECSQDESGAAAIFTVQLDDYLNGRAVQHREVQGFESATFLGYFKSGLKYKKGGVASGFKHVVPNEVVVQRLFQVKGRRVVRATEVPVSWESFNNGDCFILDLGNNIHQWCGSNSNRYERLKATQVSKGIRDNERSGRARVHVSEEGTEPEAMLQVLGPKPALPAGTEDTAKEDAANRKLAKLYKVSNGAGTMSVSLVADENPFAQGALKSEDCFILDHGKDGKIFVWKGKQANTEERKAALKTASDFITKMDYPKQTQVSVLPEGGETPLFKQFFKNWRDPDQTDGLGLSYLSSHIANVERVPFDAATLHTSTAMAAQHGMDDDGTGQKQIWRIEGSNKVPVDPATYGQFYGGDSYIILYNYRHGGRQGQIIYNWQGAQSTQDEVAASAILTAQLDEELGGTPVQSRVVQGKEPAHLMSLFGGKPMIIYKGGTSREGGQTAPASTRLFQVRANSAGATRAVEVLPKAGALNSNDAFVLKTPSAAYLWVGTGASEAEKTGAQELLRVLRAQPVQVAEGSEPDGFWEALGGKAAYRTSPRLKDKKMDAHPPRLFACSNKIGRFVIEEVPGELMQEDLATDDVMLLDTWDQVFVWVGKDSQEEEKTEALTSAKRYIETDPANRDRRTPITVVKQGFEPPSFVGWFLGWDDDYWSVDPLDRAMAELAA

`O=C(NO)c1ccc(CN2CCCCc3ccccc32)c(F)c1` gave an inhibition of -16.3% (Tspo (Rattus norvegicus, UniProt P16257); radioligand binding, radioligand displacement; 10 µM, mean of replicates).
`Cc1cc(NS(=O)(=O)c2ccc(N=NN(O)c3ccccc3)cc2)no1` has an inhibition of 20 ± 1.55% (α-glucosidase, rat intestine; enzyme activity; 60 µg/mL, together with: 4-nitrophenyl α-D-glucopyranoside).
For `O=C(CN1CCO[C@@H](COc2cccnc2)C1)N1CCc2ccccc21`, the inhibition was -5% (HTR1E (Homo sapiens, UniProt P28566); radioligand binding; concentration not given, together with: [3H]5-HT).
With `COc1ccc(F)cc1C(=O)NCc1ccc(-c2nn([C@@H](C)C(F)(F)F)c(N)c2C(N)=O)cc1` the inhibition was 9.4% (OXSR1 (Homo sapiens, UniProt O95747); target engagement, competitive chemoproteomics; human PBMCs; 0.1 µM).
For `Nc1ccc(O)cc1`, the inhibition was 10.8% (THP-1; pyroptotic LDH release; 2 µM, 40 min, together with: LPS then nigericin).
The inhibition of `CN1CCN(c2cc(-c3ccncc3)c(-c3ccc4ccccc4c3)nn2)CC1` is reported as -0.5% (PTAFR (Homo sapiens, UniProt P25105); antagonist, FLIPR; 10 µM).
`CCN(O)N=Nc1ccc(S(=O)(=O)Nc2nccs2)cc1` has an inhibition of 20 ± 1.38% (α-glucosidase, rat intestine; enzyme activity; 60 µg/mL, together with: 4-nitrophenyl α-D-glucopyranoside).
With `Nc1ncnc2[nH]cnc12` the inhibition was 15% (Gelsolin, peptide (GSN, Homo sapiens, UniProt P06396); gelsolin peptide aggregation, inhibitor, ThT fluorescence; 100 µM, 12 h, 37 °C).
With `O=S(=O)(Nc1nccs1)c1ccc(N=NN(O)c2ccccc2)cc1` the inhibition was 22.5 ± 1.38% (α-glucosidase, rat intestine; enzyme activity; 120 µg/mL, together with: 4-nitrophenyl α-D-glucopyranoside).
`CC[C@@H]1[C@H](F)C(=O)N[C@@H]1COc1nccc2cc(C(N)=O)c(OC)cc12` gave an inhibition of 19.1% (CAMK4 (Homo sapiens, UniProt Q16566); ATP-site probe binding, ActivX profiling; THP-1 cell lysate; 0.04 mM, Lys2 site).
For `COc1cc(C(=O)NC2CCCNC2)cc(OC)c1OC` (stereo not drawn), the inhibition was 43.2% (THP-1; pyroptotic LDH release; 2 µM, 40 min, together with: LPS then nigericin).
For `CNC(=O)c1ccccc1Sc1ccc2c(/C=C/c3ccccn3)n[nH]c2c1`, the inhibition was 69.5% (Luciferin 4-monooxygenase (Photinus pyralis, UniProt P08659); luciferase luminescence, inhibitor; cell-free; 50 µM, counter-screen).

A few entries again:
`CC[C@@H]1[C@H](F)C(=O)N[C@@H]1COc1nccc2cc(C(N)=O)c(OC)cc12` gave an inhibition of 19.1% (CAMK4 (Homo sapiens, UniProt Q16566); ATP-site probe binding, ActivX profiling; THP-1 cell lysate; 0.04 mM, Lys2 site).
